Measured values gathered from unrelated publications.
± gives the spread as reported.
CYP1A2: Cytochrome P450 1A2 (CYP1A2, Homo sapiens, UniProt P05177)
CYP2B6: Cytochrome P450 2B6 (CYP2B6, Homo sapiens, UniProt P20813)
Sequence of UniProt P20813 (whole entry, looked up): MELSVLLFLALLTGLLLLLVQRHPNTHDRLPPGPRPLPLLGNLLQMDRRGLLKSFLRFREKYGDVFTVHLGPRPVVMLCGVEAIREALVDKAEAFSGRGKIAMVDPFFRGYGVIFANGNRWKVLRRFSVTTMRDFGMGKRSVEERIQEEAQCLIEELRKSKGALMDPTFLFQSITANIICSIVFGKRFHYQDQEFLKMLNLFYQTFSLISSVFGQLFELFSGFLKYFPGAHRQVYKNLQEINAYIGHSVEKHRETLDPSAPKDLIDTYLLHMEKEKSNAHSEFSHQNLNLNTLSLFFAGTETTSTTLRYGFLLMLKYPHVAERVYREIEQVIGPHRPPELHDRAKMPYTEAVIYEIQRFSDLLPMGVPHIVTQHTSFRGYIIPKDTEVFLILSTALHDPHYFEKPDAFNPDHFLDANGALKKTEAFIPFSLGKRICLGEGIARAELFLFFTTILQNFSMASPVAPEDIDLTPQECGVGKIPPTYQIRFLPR
Abcb1a N83Q/N87Q/N90Q: ATP-dependent translocase ABCB1 (Abcb1a, Mus musculus, UniProt P21447, N83Q/N87Q/N90Q)
Sequence of UniProt P21447 (whole entry, unmodified, looked up): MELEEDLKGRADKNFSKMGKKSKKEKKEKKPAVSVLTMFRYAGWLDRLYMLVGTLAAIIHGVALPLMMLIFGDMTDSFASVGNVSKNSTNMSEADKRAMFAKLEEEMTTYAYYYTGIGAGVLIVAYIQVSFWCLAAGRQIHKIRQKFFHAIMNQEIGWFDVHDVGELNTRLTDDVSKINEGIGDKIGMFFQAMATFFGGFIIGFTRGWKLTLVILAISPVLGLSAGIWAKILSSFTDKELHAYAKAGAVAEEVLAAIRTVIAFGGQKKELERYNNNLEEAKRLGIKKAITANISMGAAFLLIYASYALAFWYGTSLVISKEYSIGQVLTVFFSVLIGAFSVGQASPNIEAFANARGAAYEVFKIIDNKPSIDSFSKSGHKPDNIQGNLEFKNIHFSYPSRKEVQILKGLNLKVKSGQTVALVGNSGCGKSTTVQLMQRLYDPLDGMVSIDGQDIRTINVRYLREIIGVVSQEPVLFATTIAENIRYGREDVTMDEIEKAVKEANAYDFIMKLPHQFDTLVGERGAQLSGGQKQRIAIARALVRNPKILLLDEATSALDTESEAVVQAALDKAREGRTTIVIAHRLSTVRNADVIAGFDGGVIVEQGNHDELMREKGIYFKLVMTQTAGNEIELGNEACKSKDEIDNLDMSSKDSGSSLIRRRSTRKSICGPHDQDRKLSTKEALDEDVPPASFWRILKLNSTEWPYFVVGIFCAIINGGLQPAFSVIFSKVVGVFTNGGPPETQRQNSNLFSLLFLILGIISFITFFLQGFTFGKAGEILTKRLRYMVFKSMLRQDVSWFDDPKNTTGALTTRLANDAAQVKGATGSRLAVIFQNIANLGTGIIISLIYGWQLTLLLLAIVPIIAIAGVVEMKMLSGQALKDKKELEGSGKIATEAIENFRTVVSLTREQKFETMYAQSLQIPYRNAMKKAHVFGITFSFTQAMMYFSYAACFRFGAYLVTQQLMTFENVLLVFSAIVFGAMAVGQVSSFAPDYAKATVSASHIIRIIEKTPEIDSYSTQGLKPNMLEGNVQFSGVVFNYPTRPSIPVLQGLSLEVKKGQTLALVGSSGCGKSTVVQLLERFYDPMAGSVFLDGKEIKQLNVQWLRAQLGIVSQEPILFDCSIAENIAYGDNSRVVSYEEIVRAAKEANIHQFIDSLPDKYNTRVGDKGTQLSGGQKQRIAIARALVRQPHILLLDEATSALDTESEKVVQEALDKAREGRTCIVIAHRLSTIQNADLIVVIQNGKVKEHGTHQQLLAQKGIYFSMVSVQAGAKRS
Ahr: Aryl hydrocarbon receptor (Ahr, Mus musculus, UniProt P30561)
Sequence of UniProt P30561 (whole entry, looked up): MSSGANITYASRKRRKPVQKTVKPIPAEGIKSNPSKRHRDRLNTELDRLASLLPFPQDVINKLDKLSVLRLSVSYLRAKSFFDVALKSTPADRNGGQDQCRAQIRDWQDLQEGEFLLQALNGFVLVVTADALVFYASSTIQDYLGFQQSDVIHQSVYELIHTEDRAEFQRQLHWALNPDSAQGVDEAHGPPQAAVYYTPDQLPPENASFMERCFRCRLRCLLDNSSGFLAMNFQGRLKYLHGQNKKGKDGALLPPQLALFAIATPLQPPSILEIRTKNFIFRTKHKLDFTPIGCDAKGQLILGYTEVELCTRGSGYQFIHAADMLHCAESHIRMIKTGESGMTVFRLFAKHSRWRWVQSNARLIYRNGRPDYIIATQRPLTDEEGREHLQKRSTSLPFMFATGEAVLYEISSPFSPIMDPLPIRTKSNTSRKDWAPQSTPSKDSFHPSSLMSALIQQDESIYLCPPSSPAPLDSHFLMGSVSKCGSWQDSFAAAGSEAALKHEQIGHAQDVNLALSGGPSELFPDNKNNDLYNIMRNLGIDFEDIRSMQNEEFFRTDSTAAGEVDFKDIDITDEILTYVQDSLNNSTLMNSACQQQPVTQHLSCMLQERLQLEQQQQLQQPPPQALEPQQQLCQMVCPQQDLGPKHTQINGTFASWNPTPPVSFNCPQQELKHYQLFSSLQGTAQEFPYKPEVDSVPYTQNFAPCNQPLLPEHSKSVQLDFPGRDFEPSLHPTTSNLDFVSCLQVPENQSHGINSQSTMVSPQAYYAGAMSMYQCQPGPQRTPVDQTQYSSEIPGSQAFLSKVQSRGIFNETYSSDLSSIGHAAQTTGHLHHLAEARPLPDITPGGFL
CYP1A1: Cytochrome P450 1A1 (CYP1A1, Homo sapiens, UniProt P04798)
Sequence of UniProt P04798 (whole entry, looked up): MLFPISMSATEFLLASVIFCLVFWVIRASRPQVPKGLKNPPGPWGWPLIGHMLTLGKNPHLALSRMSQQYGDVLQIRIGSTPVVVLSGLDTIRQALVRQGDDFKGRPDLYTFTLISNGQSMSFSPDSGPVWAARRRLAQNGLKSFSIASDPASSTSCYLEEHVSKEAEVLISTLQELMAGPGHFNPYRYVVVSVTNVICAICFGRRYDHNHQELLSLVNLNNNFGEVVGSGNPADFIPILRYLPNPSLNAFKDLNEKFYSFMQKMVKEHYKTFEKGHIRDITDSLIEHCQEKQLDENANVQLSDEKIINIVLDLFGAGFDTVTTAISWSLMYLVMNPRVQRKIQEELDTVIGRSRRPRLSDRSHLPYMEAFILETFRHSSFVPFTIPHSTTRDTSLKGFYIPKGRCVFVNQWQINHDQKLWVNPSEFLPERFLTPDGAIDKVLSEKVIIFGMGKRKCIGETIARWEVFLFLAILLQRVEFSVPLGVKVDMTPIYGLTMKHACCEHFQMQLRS
KCNH2: Voltage-gated inwardly rectifying potassium channel KCNH2 (KCNH2, Homo sapiens, UniProt Q12809)
Sequence of UniProt Q12809 (whole entry, looked up): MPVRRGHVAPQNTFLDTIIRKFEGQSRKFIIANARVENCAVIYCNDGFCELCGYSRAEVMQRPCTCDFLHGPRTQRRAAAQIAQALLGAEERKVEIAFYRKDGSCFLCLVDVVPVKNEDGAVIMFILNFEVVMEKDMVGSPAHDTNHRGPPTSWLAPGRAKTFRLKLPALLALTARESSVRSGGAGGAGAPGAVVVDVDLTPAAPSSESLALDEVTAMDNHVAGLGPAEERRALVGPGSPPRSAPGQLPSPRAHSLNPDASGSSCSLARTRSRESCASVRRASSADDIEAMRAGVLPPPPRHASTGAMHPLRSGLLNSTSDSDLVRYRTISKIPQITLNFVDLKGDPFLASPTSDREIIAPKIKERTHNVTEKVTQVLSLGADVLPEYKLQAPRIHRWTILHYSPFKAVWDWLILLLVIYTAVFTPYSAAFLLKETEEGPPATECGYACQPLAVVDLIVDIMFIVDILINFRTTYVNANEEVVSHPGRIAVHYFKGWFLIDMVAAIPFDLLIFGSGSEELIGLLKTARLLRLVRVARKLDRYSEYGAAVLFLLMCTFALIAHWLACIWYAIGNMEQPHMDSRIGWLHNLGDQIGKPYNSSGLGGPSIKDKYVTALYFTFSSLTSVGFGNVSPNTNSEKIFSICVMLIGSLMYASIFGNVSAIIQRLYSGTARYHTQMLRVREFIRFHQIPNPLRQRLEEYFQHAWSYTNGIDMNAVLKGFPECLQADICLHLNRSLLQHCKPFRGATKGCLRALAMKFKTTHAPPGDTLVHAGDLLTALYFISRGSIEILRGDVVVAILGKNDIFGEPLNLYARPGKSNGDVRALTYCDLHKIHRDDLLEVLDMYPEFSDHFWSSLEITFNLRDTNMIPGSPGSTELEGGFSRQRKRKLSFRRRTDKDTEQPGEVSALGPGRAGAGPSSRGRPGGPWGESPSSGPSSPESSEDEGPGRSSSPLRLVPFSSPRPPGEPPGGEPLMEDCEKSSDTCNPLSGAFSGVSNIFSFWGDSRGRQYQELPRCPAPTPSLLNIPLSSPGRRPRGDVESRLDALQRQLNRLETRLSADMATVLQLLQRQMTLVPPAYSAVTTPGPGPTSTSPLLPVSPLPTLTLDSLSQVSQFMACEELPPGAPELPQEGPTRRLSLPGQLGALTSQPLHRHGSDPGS
CYP2E1: Cytochrome P450 2E1 (CYP2E1, Homo sapiens, UniProt P05181)
Sequence of UniProt P05181 (whole entry, looked up): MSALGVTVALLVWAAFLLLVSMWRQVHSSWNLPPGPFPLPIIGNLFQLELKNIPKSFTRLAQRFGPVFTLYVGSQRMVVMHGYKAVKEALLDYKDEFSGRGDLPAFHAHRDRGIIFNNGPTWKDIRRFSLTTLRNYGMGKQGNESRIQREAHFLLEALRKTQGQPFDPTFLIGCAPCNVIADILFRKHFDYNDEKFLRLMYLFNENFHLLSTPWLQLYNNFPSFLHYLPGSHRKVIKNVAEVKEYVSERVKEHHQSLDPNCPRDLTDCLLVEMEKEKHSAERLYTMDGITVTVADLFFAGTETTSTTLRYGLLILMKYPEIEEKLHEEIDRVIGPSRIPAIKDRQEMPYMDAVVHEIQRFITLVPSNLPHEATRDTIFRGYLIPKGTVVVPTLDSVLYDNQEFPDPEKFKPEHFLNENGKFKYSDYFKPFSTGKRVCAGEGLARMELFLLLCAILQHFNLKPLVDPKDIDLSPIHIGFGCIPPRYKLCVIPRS

Substance	target	assay	system	conditions	IC50
C#CCOc1ccc(-c2cc(=O)c3ccccc3o2)cc1	CYP1A2	enzyme activity, inhibitor	–	–	1.27 µM
O=S(=O)(O)C(F)(F)C(F)(F)C(F)(F)C(F)(F)F	CYP2B6	enzyme activity, inhibitor	Supersomes	with: 7-ethoxy-4-trifluoromethylcoumarin substrate	> 100 µM
Brc1c(Br)c(Br)c(Oc2c(Br)c(Br)c(Br)c(Br)c2Br)c(Br)c1Br	Abcb1a N83Q/N87Q/N90Q	ATPase activity, inhibitor	–	with: 100 µM verapamil	6.5 µM
Clc1ccc(-c2cc(Cl)c(Cl)cc2Cl)cc1Cl	Ahr	binding, competitor	–	in vitro expressed receptor, with: [3H]TCDD	6.31 µM
C#CCOc1ccc2c(=O)cc(-c3ccccc3)oc2c1	CYP1A1	enzyme activity, inhibitor, fluorescence	–	–	0.51 µM
C[C@@H]1NC(C)(C)CO[C@@]1(O)c1cccc(Cl)c1	Cytochrome P450 2D6 (CYP2D6, Homo sapiens, UniProt P10635)	enzyme activity, inhibitor	–	–	14 µM
CN(C)c1ccc(C(=C2C=CC(=[N+](C)C)C=C2)c2ccccc2)cc1	KCNH2	thallium influx, inhibitor, primary qHTS	hERG-transduced cells	two runs	7.1 µM
C#CCOc1cccc2oc(-c3ccccc3)cc(=O)c12	CYP1A1	enzyme activity, inhibitor, fluorescence	–	–	1.6 µM
Nonylphenol	CYP2B6	enzyme activity, inhibitor, Vivid fluorescent	–	–	0.221 µM
Clc1cc(-c2cc(Cl)c(Cl)c(Cl)c2)cc(Cl)c1Cl	Ahr	binding, competitor	–	in vitro expressed receptor, with: [3H]TCDD	0.0631 µM
C#CCOc1ccccc1-c1cc(=O)c2ccccc2o1	CYP1A1	enzyme activity, inhibitor, fluorescence	–	–	0.56 µM
Clc1ccc(-c2cc(Cl)c(Cl)c(Cl)c2)cc1	Ahr	binding, competitor	–	in vitro expressed receptor, with: [3H]TCDD	0.112 µM
Brc1ccc(Oc2cc(Br)ccc2Br)c(Br)c1	Abcb1a N83Q/N87Q/N90Q	ATPase activity, inhibitor	–	with: 100 µM verapamil	35.6 µM
O=c1cc(-c2ccc(O)cc2)oc2ccccc12	CYP1A1	enzyme activity, inhibitor, fluorescence	–	–	18.3 µM
Clc1cccc(Cl)c1-c1c(Cl)c(Cl)c(Cl)c(Cl)c1Cl	Abcb1a N83Q/N87Q/N90Q	ATPase activity, inhibitor	–	with: 100 µM verapamil	6.9 µM
O=C(Cc1ccccc1Nc1c(Cl)cccc1Cl)Oc1ccc(-c2cc(=S)ss2)cc1	CYP1A1	enzyme activity, inhibitor, fluorescence	–	–	0.05 µM
CCCCCCCC[N+](CCCCCCCC)(CCCCCCCC)CCCCCCCC	KCNH2	thallium influx, inhibitor, primary qHTS	hERG-transduced cells	two runs	0.38 ± 0.03 µM
Clc1ccc(-c2ccc(Cl)c(Cl)c2Cl)cc1Cl	Ahr	binding, competitor	–	in vitro expressed receptor, with: [3H]TCDD	5.01 µM
Cn1cc(C2=C(c3coc4ccc(F)cc34)C(=O)NC2=O)c2cc3c(cc21)OCO3	KCNH2	ion current, inhibitor, thallium flux	U2OS overexpressing hERG	–	3.8 µM
O=S(=O)(O)C(F)(F)C(F)(F)C(F)(F)C(F)(F)C(F)(F)C(F)(F)C(F)(F)C(F)(F)F	CYP2E1	enzyme activity, inhibitor	–	Supersomes, with: 7-MFC substrate	> 100 µM
Clc1cc(Cl)c(-c2cc(Cl)c(Cl)cc2Cl)c(Cl)c1	Abcb1a N83Q/N87Q/N90Q	ATPase activity, inhibitor	–	with: 100 µM verapamil	14.3 µM
C#CCOc1cccc(-c2cc(=O)c3ccccc3o2)c1	CYP1A2	enzyme activity, inhibitor	–	–	0.67 µM
COc1ccc2c(c1OC)C(=O)O[C@@H]2[C@H]1c2cc3c(cc2CCN1C)OCO3	Solute carrier family 22 member 1 (SLC22A1, Homo sapiens, UniProt O15245)	inhibitor	–	–	< 10 µM
O=C(O)C(F)(F)C(F)(F)C(F)(F)C(F)(F)C(F)(F)F	CYP2E1	enzyme activity, inhibitor	–	Supersomes, with: 7-MFC substrate	> 100 µM
C=C(C[C@@]12C[C@@H](C)C[C@@H](O1)[C@H]1O[C@]3(C[C@H]1O2)NC[C@H](C)C[C@@H]3C)[C@H]1O[C@@](O)([C@@H](O)[C@@H]2C[C@H]3O[C@@]4(CC[C@]5(CC(C)=C[C@@H](/C=C/CCC(=O)O)O5)O4)[C@H](C)C[C@H]3O2)[C@H](C)C[C@@H]1C	KCNH2	ion current, inhibitor, patch clamp	HEK293 expressing hERG	room temperature, peak tail current	0.64 µM
O=C(O)C(F)(OC(F)(F)C(F)(F)C(F)(F)F)C(F)(F)F (stereo not drawn)	CYP2E1	enzyme activity, inhibitor	–	Supersomes, with: 7-MFC substrate	> 100 µM
Clc1cc(Cl)c(-c2cc(Cl)c(Cl)c(Cl)c2)c(Cl)c1	Abcb1a N83Q/N87Q/N90Q	ATPase activity, inhibitor	–	with: 100 µM verapamil	25.8 µM
N#Cc1ccc(C(O)c2ccc(C#N)cc2)cc1	CYP2B6	enzyme activity, inhibitor	human liver microsomes	with: efavirenz 10 µM	33.1 µM
O=c1cc(-c2ccccc2)oc2ccc(O)cc12	CYP1A1	enzyme activity, inhibitor, fluorescence	–	–	12.4 µM
Clc1cc(Cl)c(-c2c(Cl)cccc2Cl)c(Cl)c1Cl	Abcb1a N83Q/N87Q/N90Q	ATPase activity, inhibitor	–	with: 100 µM verapamil	4.4 µM

For quick reference, copied from above:
Substance	target	assay	system	conditions	IC50
COc1ccc2c(c1OC)C(=O)O[C@@H]2[C@H]1c2cc3c(cc2CCN1C)OCO3	Solute carrier family 22 member 1 (SLC22A1, Homo sapiens, UniProt O15245)	inhibitor	–	–	< 10 µM
O=c1cc(-c2ccc(O)cc2)oc2ccccc12	CYP1A1	enzyme activity, inhibitor, fluorescence	–	–	18.3 µM
